Published values gathered from unrelated publications.
Every numbered part comes from another study and shows a few of its results, in no order.

Study 1
Target: Histone acetyltransferase KAT6A, winged helix 1, GST fusion (KAT6A, Homo sapiens, UniProt Q92794, residues 1-85)
Method: protein binding microarray
Form: double-stranded DNA, one strand shown
Medium: in vitro
Concentration: not given
Setting: 8-mer, flanks averaged, mean of 2 arrays, mostly near background
Baseline: not given
Reading: higher = stronger binding
Quantity: E-score
Residues (chain): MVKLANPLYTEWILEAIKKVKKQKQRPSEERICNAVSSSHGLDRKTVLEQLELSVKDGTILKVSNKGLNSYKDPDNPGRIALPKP
TACATGGA: 0.00869
TATCCAAA: -0.271
CCGCTGAA: 0.115
CTATAGAC: -0.0689
CACCACGA: -0.231
ACGCTCGA: 0.0876
CTTCACAC: -0.195
GAGTCCCA: -0.0572
CGCCATAC: 0.052
GAAATGCC: 0.133
ATATCATC: -0.0691
ACACGCCA: -0.0101
CGATGGCC: 0.0961
CTTAAACC: -0.0976
AAACGTCA: 0.00129
CCACGCAA: 0.0304
TCAATGGA: -0.103

Study 2
Target: Interferon regulatory factor 5, full length, phosphomimetic (IRF5, Homo sapiens, UniProt Q13568-2, residues 1-514, K96S/S451D/S453D/S456D/S462D)
Method: protein-binding microarray
Form: double-stranded DNA, one strand shown
Medium: in vitro
Concentration: 250 nM
Setting: 60-bp whole probe
Together with: salmon DNA 0.4 mg/ml
Baseline: random background probes
Reading: higher = stronger binding
Quantity: log fluorescence
Constant ends, left off below: GCCTAGCAC … GTCTTGATTCGCTTGACGCTGCTG
TCATTTTTTTTTTCTGAACTGTGCTAG: 1.53 z-score
GACGGACCGGACACTGGGGACGTGCTA: -0.563 z-score
AACGATTTCAGACTGGAGACGTGCTAG: 0.366 z-score
GACGGTTTCGGGACTGTGGACGTGCTA: 4.84 z-score
GACGAACTGGGGTATCGCGACGTGCTA: -0.464 z-score
CTATGTCTGTTTTTGCTTTCGTGCTAG: 2.62 z-score
TCAATTCTGCTTTGCAAACTGTGCTAG: 0.587 z-score
GACGATTTCGGGTATCGAGTCGTGCTA: 4.87 z-score
TTGGAACTGAGTCTCGATTAGTGCTAG: 0.446 z-score
GCTGGGTTTTCTTGGCACAGGTGCTAG: -0.431 z-score
TTAGTTATCGACACTGGGTTAGTGCTA: 2.41 z-score
TTAGAACAGAGACTGGATTAGTGCTAG: -0.13 z-score
GACGATATCGGGTTTCGAGAGGTGCTA: 3.74 z-score
GGCATTTTCGGGTAGATGGCCGTGCTA: 6.63 z-score
GACGCTATCGGTTTCGGGACGTGCTAG: 9.09 z-score
TCATTCATGAAATTTTAAACTGTGCTA: 0.957 z-score
GACGGTATCCTTCTCATGACGTGCTAG: 0.308 z-score

Study 3
Target: RNA binding protein fox-1 homolog 2, RRM domain, GST-SBP tag (RBFOX2, Homo sapiens, UniProt O43251-10, residues 100-194)
Method: RNA Bind-n-Seq
Form: RNA
Medium: in vitro
Concentration: 365 nM
Setting: natural RNA segment, single round, ends assumed
Baseline: no-protein control
Reading: higher = stronger binding
Quantity: RBNS enrichment (R)
Constant ends, left off below: GGGAGUUCUACAGUCCGACGAUC … UGGAAUUCUCGGGUGCCAA
Construct (chain): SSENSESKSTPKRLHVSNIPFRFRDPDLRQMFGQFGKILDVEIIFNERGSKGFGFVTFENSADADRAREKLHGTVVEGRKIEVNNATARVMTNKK
UUUCUCCAGGUGUGCAGAUGGCAUGUUAGUGUGGGCACGCUGUUAAGUGGGUAUCCCACCUCCAGCCCACAGUGCUCAGUUGUACUUUUUAUUAUUAAACUAUAAUUAUC: 0.771
AAACUAUUCUCGCAAGGAAAACAUUGCCACCAUUUGUAGAACAUGUAAUCUUCAAGUAUGUGCUAUUUUUUGUCCCUGUAUCUAAGUCAAAUCAGGAACUUUUUUCUAAC: 0.454
UUUUGACCAAGUGUAAAAAUAGCUGGCCUUUUCCUUGUGAUUGGUCUUUAUUAGUCUUUUUAAUGCCUCUAACCCUGUGGAAGCUGUCUGCACGCAGUAUCCCACUGUAG: 0.47
CCACCUUAGUGCCAGGGCCGAGGGCUGGUCUGCAUGCUGGAAGAGGUUGAGAGUUUUGGAAUUGAUUCCAUGCUAAAUGUCAGUUACCAGUUUGGAUUGAUGAAAGUGAU: 5.13
CAGCCUCAUCCUUUGCCUUGCUGGCUUUCUGGGCACGUCUUAAAGCUGAUGUGAAUCCAUCCAGGGCCUAGGUAGAUUGGUAAGUCAGGAAACAGCCCAUGGGGUUCAGC: 0.534
AGUGGAGACUCCCAUCUUUGGGGAAGCAUAUAUGCUCAAGCGCCUCUACAAAGACAUUCCCUGGCAGUAAGAAAUGCUGAAAUGCUUUUUGUUGGUUUUGAAACACUCCC: 0.453
AAGAUGUUGCACUGGUGGCAAUUCAUCAUGGAACAUAAUAAAAUUAAUUUGACCCAAAUAGUAUAAAUAGUGUGUCUCAUUUGUUAUUAAGAUGUUAAAAUAAGUAGAAA: 0.332
UGAGGAGGUUUUUCCUUAUUGUAUAAAUGAAUAUUUGUAUGAUUAAAUUAACACACACACCAAAAAAGCUGUUUUCAUGUGUGUUGGUGAGUUUUAUUGCACCCUCAAGC: 0.691
CUUUAAACUUUGCUCUUUCAGGUGGAGGCUUCGUUUCUGGGAUCCCACUGCACCGCCAUUUCUUCCCAGAUUUAUGUGUAUAACUUAAACUGGAAAAAAAGAAAAAGAAA: 0.314
CUUGUCAAGUGAAUUCUUUGCAUGUUCAAAACGGAAACCAUUGAUUAGAACUACAUUCUUUACCCCUUGUUUUAAUUUGAACCCCACCAUAUGGAUUUUUUUCCUUAAGA: 1.69
UGAUGGCAUUUUUUUGUCAUGAAAAAAAAAUAAUGUAAAUCACAGACUUUUGCCAAAGCUCUUAUUUUUUUUCUAAAUCUCUCCAGAAAAAAAUUGCAAGUGAUUAGAUU: 1.25
AAGAAUUUAAACGGGAGUCUGAAGACCUGCUGUUACUAGAAAGUUAAGAAAGGCGCUUUACAGAUAUAAAGAAAGGGAACAUGACAGCUGCCUGAUGGCUUAGCCUGGAG: 0.859

Study 4
Target: Prothrombin, mature alpha-thrombin (F2, Homo sapiens, UniProt P00734)
Method: aptamer microarray, sandwich
Form: DNA with 2'F-ANA
Medium: in vitro
Concentration: 200 nM
Setting: whole 15-mer aptamer, many near background
Together with: Cy3 exosite-II aptamer, 400 nM
Reading: higher = stronger binding
Quantity: mean fluorescence intensity
Sequence: GGTTGGTGTGGTTGG
2'F-ANA at 2 4 6 7 9 10 11 15: 72.6 a.u.
2'F-ANA at 5 7 8 10 13: 43.8 a.u.
2'F-ANA at 1 2 4 5 8 9 10 11 15: 50.9 a.u.
2'F-ANA at 1 2 5 7 9 10 15: 45.8 a.u.
2'F-ANA at 2 7 8 11: 445 a.u.
2'F-ANA at 7 9 10 12 13: 223 a.u.
2'F-ANA at 1 2 6 8 9 12 13 14 15: 64.1 a.u.
2'F-ANA at 3 6 8 11 13 14: 535 a.u.
2'F-ANA at 1 2 3 4 5 7 8 12 15: 130 a.u.
2'F-ANA at 4 7: 376 a.u.
2'F-ANA at 1 6 8 10 14 15: 48.5 a.u.
2'F-ANA at 7 8 10 11 12 13 14 15: 103 a.u.
2'F-ANA at 2 3 7 9 15: 788 a.u.
2'F-ANA at 1 2 3 6 9 13 14 15: 64.4 a.u.
2'F-ANA at 2 5 8 9 10 12: 63.7 a.u.
2'F-ANA at 1 2 5 6 8 13 15: 52.6 a.u.
2'F-ANA at 1 2 5 7 14: 56.3 a.u.
2'F-ANA at 2 4 5 6 10 12 14 15: 46.4 a.u.
2'F-ANA at 1 3 6 7 12 13 14 15: 110 a.u.
2'F-ANA at 1 2 3 10 11 12 13 15: 85.4 a.u.

Study 5
Target: Ras GTPase-activating protein-binding protein 1, C-terminal RGG region (G3BP1, Homo sapiens, UniProt Q13283)
UniProt Q13283, sequence (whole entry, looked up): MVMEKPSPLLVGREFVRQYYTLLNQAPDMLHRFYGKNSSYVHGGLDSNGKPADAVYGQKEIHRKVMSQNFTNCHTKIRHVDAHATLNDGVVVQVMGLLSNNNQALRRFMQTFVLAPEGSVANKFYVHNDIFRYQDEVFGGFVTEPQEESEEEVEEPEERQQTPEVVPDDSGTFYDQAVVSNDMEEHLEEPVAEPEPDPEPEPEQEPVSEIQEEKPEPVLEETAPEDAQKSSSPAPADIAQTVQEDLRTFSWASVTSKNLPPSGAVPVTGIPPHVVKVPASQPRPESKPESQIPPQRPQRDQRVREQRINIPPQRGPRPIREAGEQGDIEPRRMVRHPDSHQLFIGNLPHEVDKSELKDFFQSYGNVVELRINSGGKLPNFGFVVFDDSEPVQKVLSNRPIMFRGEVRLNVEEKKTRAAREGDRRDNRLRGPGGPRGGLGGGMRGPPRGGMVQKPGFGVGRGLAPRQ
Method: RNA Bind-n-Seq
Form: RNA
Medium: in vitro
Concentration: 1 µM
Setting: whole 134-nt RNA, ends assumed
Together with: 150 mM KCl
Baseline: input library
Reading: higher = stronger binding
Quantity: log2 enrichment
Constant ends, left off below: GGGAGUUCUACAGUCCGACGAUC … UGGAAUUCUCGGGUGUCAAGG
GCAGGAAGUAAAAACAAAUGGAAUUGCUUCGGAUAGUGGCAGGGGUGGGGGUUGCUAAGGAAAGGGUGGGAUGGGAGUGGGUAAAGAGUU: 1.9
GCAGGAAGUAAAAACAAAUGGAAAUGCUUCGGAUAGUGGCAGGGGUGGGGGUUGCGAAGGAAAGGGUGGGAUGGGAGUGGGUAAAGAGUU: 2.41
CUCAAGUCCUGUGCUACACAUCGUAUGUACCGAAUCGGUGGUUUUUUUGGAGGAAAGUAUUAUGUUACGCCGUUCGGAUCUGCACUUCCA: -0.826
CCUGUGCUACACAUCGUAUGUACCGAAUCGGGAAAAAGGGUUUUUUUGGGAAAAAAAGGGAAAGUAUUAUGUUACGCCGUUCGGAUCUGC: -2
CUGUGCUACACAUCGUAUGUACCGAAUCGGGGAAAAAAAGGGGUUUUUUUGGGGAAAGGGGAAAGUAUUAUGUUACGCCGUUCGGAUCUG: 0.113
GCAGGAAGUAAAAACAAAUGGAAAUGCUUCGGAUAGUGGCAGGGGUGGGGGUUGCUAAGGAAAGGGUCGGAUGGGAGUGGGUAAAGAGUU: 1.68
UGGCCCUGGUGGCAUGCGGGGAGGAAGAGGUGGCCUCAUGGAUGGUGGUGGUCCCGGUGGAAUGUUCAGAGGUGGCCGUGGUGGAGACAG: 2.4
GUCCUGUGCUACACAUCGUAUGUACCGAAUCGGGGUUUUUGGGGUUUUUGGGGUGGGGAAAGUAUUAUGUUACGCCGUUCGGAUCUGCAC: 1.13
CCUGUGCUACACAUCGUAUGUACCGAAUCGGGAAAAAAGGGGAAAAAAGGGAAAAAAGGGGAAAGUAUUAUGUUACGCCGUUCGGAUCUG: -1.31
UCAAGUCCUGUGCUACACAUCGUAUGUACCGAAUCGGGGUUUGGUUUGGUUUGGGAAAGUAUUAUGUUACGCCGUUCGGAUCUGCACUUC: -1.01
AAGUCCUGUGCUACACAUCGUAUGUACCGAAUCGGGCCCGGGGCCCGGGGCCCGGGGAAAGUAUUAUGUUACGCCGUUCGGAUCUGCACU: -2.12
UCAAGUCCUGUGCUACACAUCGUAUGUACCGAAUCGGGUGGGAGGGUUUUUGGGAAAGUAUUAUGUUACGCCGUUCGGAUCUGCACUUCC: 1.59
UCCUGUGCUACACAUCGUAUGUACCGAAUCGGGAAAAAAAGGGAAAAAAAGGGUUUGGGAAAGUAUUAUGUUACGCCGUUCGGAUCUGCA: -0.809
UCAAGUCCUGUGCUACACAUCGUAUGUACCGAAUCGGGAAAGGGGAAAGGAAAGGAAAGUAUUAUGUUACGCCGUUCGGAUCUGCACUUC: -1.46

Excerpt of the above (study 3):
UUUUGACCAAGUGUAAAAAUAGCUGGCCUUUUCCUUGUGAUUGGUCUUUAUUAGUCUUUUUAAUGCCUCUAACCCUGUGGAAGCUGUCUGCACGCAGUAUCCCACUGUAG: 0.47
CCACCUUAGUGCCAGGGCCGAGGGCUGGUCUGCAUGCUGGAAGAGGUUGAGAGUUUUGGAAUUGAUUCCAUGCUAAAUGUCAGUUACCAGUUUGGAUUGAUGAAAGUGAU: 5.13
CAGCCUCAUCCUUUGCCUUGCUGGCUUUCUGGGCACGUCUUAAAGCUGAUGUGAAUCCAUCCAGGGCCUAGGUAGAUUGGUAAGUCAGGAAACAGCCCAUGGGGUUCAGC: 0.534
AGUGGAGACUCCCAUCUUUGGGGAAGCAUAUAUGCUCAAGCGCCUCUACAAAGACAUUCCCUGGCAGUAAGAAAUGCUGAAAUGCUUUUUGUUGGUUUUGAAACACUCCC: 0.453
AAGAUGUUGCACUGGUGGCAAUUCAUCAUGGAACAUAAUAAAAUUAAUUUGACCCAAAUAGUAUAAAUAGUGUGUCUCAUUUGUUAUUAAGAUGUUAAAAUAAGUAGAAA: 0.332
